Results of several laboratories.
Protocols differ between the studies behind these lines. “And” joins repeats or separate records; there may be more than shown.
RAF1: RAF proto-oncogene serine/threonine-protein kinase (RAF1, Homo sapiens, UniProt P04049)

| SMILES | target | test | conditions | scale | endpoint | result |
| --- | --- | --- | --- | --- | --- | --- |
| Nc1ncc2c(n1)-c1c([nH]c3ccc(C4=CCOCC4)cc13)CCC2 | RAF1 | binding, competition with immobilised ligand | 1 µM | – | remaining binding | 100% |
| CNC(=O)C1CCN(c2cc(C)c(F)cc2NC(=O)c2ccc(-c3cc(O)ccc3C)c(C)c2)CC1 | RAF1 | binding, competition with immobilised ligand | 1 µM | – | remaining binding | 76% |
| CNS(=O)(=O)Nc1nccc(Cc2c(C)c3ccc(Oc4ncccc4F)cc3oc2=O)c1F | RAF1 | binding, competition with immobilised ligand | 10 µM | – | remaining binding | 24% |
| O=C(O)CCC(=O)c1cccc(NS(=O)(=O)c2c[nH]c3ncccc23)c1 | RAF1 | kinase activity, radiometric | 10 µM | – | remaining activity | 108% |
| Cc1[nH]nc2c1N=C(c1ccccc1Cl)c1cnc(N3CCOCC3)cc1N2 | RAF1 | enzyme activity, inhibitor | 0.5 µM | – | inhibition | 7.2% |
| CN1CC[C@@H](COc2cnc(C#N)cc2-c2ccn3nc(NC(=O)C4CC4)cc3c2)C1 | RAF1 | enzyme activity, inhibitor | 1 µM | – | inhibition | 17% |
| COc1ccc(C(=O)/C=C/c2ccccc2-c2c[nH]c3ccc(C#N)cc23)c(O)c1 | RAF1 | enzyme activity, inhibitor | 20 µM | – | inhibition | -10% |
| O=c1c(-c2ccc(Cl)c(CN3CCOCC3)c2)coc2cc(O)ccc12 | RAF1 | enzyme activity, inhibitor | 1 µM | – | remaining activity | 86% |
| CN1CCN(Cc2ccc(NC(=O)c3cccc(C#Cc4cnc(N)c5ncccc45)c3)cc2C(F)(F)F)CC1 | RAF1 | cell-free assay, competition with immobilised ligand | 0.5 µM | – | remaining binding | 6.4% |
| COc1cc(Nc2nc(C)cc(-c3cnn4nc(OC)ccc34)n2)cc(C(F)(F)F)c1 | RAF1 | inhibitor | 1 µM | relative to: control | remaining activity | 100% |
| C=CC(=O)Nc1cccc(-c2cnc3[nH]cc(C(=O)NC(C)(C)C)c3n2)c1 | RAF1 | kinase activity | 0.1 µM | – | inhibition | -2% and 1% |
| CNC1C[S+]2CC[S+]3CC[S+](C1)[Ru-4]321([N]=C=S)[n]2c3ccc(OC)cc3c3c4c(c5cc(F)c[n+]1c5c32)C(=O)NC4=O (centres unmarked) | RAF1 | KinomeScan | 0.1 µM | relative to: untreated | remaining binding | 100% |
| Cc1cccc(O[C@H]2CCC[C@@H](C(C)CNCc3ccncc3)C2)c1 (relative stereo) | RAF1 | enzyme activity, inhibitor | 10 µM | – | inhibition | -11% |
| CCn1cc(C(=O)O)c(=O)c2c(N)c(F)c(NC3CCCCC3)cc21 | RAF proto-oncogene serine/threonine-protein kinase (RAF1, Homo sapiens, UniProt P04049, Y340E/Y341E) | kinase activity | 0.1 µM, added: ATP at Km | – | inhibition | 0.6% |
| COc1c(OCCCN2CCOCC2)ccc2c1N=C(NC(=O)c1cnc(N)nc1)N1CCN=C21 | RAF1 | kinase activity, inhibitor | 1 µM | relative to: untreated control | remaining activity | 100% |
| Cc1ccc(-c2c(/C=C(\C#N)C(=O)NC(C)C)n(CCCO)c3ncnc(N)c23)cc1 | RAF1 | cell-free assay, competition with immobilised ligand | 1 µM | – | remaining binding | 100% |
| COc1ccc(NC(=O)Nc2ccc3c(c2)C(=O)N(C(C)CO)CC(C)C(CN(C)Cc2ccc4c(c2)OCO4)O3)cc1 (centres unmarked) | RAF1 | kinase activity, KinaseProfiler | 0.03 µM, species human | relative to: control | remaining activity | 100% |
| NC(=O)C[C@H]1CCc2sc3ncnc(O[C@H]4CC[C@H](N5CCOCC5)CC4)c3c21 | RAF1 | enzyme activity, inhibitor | 10 µM | – | inhibition | 0% |
| O=C(Cc1ccc(OCc2ccccc2)cc1)NC1(C(=O)O)CCN(C(=O)c2ccc(-c3cccc(Cl)c3)cc2)CC1 | RAF1 | enzyme activity, inhibitor | 10 µM | – | activity vs control | 152% |
| CN1CCN(Cc2ccc(-c3ccc(CO[C@H]4CCC[C@@H]4NC(=O)c4cc(-c5cnn(C)c5)cnc4N)cc3)cc2)CC1 | RAF proto-oncogene serine/threonine-protein kinase (RAF1, Homo sapiens, UniProt P04049, Y340D/Y341D) | enzyme activity, inhibitor | 0.1 µM | – | inhibition | 10% |

A few entries again:
| SMILES | target | test | conditions | scale | endpoint | result |
| --- | --- | --- | --- | --- | --- | --- |
| CNC(=O)C1CCN(c2cc(C)c(F)cc2NC(=O)c2ccc(-c3cc(O)ccc3C)c(C)c2)CC1 | RAF1 | binding, competition with immobilised ligand | 1 µM | – | remaining binding | 76% |
| CCn1cc(C(=O)O)c(=O)c2c(N)c(F)c(NC3CCCCC3)cc21 | RAF proto-oncogene serine/threonine-protein kinase (RAF1, Homo sapiens, UniProt P04049, Y340E/Y341E) | kinase activity | 0.1 µM, added: ATP at Km | – | inhibition | 0.6% |
| CN1CC[C@@H](COc2cnc(C#N)cc2-c2ccn3nc(NC(=O)C4CC4)cc3c2)C1 | RAF1 | enzyme activity, inhibitor | 1 µM | – | inhibition | 17% |
